Measured values pooled from the literature.
Lines come from different studies, so protocols differ. Values joined by “and” are separate records of one study, mostly repeats; a detail may differ. ± marks the error that the study gave. In brackets after ≈: the same amount, converted by molar mass.
UCHL1: Ubiquitin carboxyl-terminal hydrolase isozyme L1 (UCHL1, Homo sapiens, UniProt P09936)
Sequence of UniProt P09936 (whole entry, looked up): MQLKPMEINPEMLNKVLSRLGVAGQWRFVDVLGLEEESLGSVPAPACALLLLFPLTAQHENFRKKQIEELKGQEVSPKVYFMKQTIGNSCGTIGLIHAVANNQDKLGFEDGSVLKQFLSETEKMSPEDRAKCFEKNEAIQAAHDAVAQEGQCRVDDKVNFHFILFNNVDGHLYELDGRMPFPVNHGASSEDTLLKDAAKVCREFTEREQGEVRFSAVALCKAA
Sequence of UniProt Q07794 (whole entry, looked up): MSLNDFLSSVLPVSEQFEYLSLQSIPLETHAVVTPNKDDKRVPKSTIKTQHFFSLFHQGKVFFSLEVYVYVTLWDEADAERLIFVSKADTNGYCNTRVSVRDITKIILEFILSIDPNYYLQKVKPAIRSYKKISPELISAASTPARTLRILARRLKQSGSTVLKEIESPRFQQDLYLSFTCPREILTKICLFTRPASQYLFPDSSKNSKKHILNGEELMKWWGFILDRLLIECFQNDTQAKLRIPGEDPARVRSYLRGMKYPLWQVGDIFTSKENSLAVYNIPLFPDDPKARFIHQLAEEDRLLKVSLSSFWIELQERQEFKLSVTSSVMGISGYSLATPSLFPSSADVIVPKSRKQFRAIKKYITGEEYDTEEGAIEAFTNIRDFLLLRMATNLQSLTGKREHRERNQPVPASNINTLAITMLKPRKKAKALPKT

For `O=C1c2ccccc2C(=O)c2c(NCCc3ccc(O)cc3)ccc(NCCc3ccc(O)cc3)c21`, the EC50 was 3.89 µM (Toxoplasma gondii; parasite growth, luciferase reporter; HFF host cells, tachyzoites; 72 h).
With `OC[C@H]1O[C@@H](O[C@@H]2[C@@H](O)[C@H](O[C@@H]3[C@@H](O)[C@H](O[C@@H]4[C@@H](O)[C@H](O[C@@H]5[C@@H](O)[C@H](O[C@H]6[C@H](O)[C@@H](CO)OC(O)[C@@H]6O)O[C@H](CO)[C@H]5O)O[C@H](CO)[C@H]4O)O[C@H](CO)[C@H]3O)O[C@H](CO)[C@H]2O)[C@H](O)[C@@H](O)[C@@H]1O` (stereo partly drawn) the -TΔS was 19.2 kcal/mol (Bacteroides uniformis; binding, ITC; pH 7.0, 25 °C, distal domain).
`O=C(C#Cc1ccc(F)c(F)c1)c1ccccc1Cl` has a mRNA level of 53% (Pseudomonas aeruginosa; RT-qPCR, measured: phzC1; biofilm cells; 10 µM, 24 h; reference: untreated).
`N=C(N)c1ccc(OCc2cc(Br)cc(COc3ccc(C(=N)N)cc3)c2)cc1` — result for “MIC in combination”: 12.5 µg/mL (Escherichia coli; BW25113; concentration not given, lowest-FICI combination, added: novobiocin).
For `Cc1ccccc1C(=O)C#Cc1ccc(F)c(F)c1`, the biofilm formation was 71% (Pseudomonas aeruginosa; static biofilm; PA14; 10 µM, 24 h; reference: DMSO).
The EC50 of `Cc1ccc(Nc2cnnc3ccc(-c4ccc(N5CCN(C)CC5)cc4)cc23)cn1` is reported as 0.9 µM (Leishmania donovani; B10R cells).
`OC(Cn1cncn1)(Cn1cncn1)c1ccc(F)cc1F` has an MIC of 25 µM (≈ 7.66 µg/mL) (Cryptococcus neoformans; 134, RPMI 1640; 24 h, 35 °C).
`CC(=O)N(Cc1cccnc1)c1cccc(-c2nc3ccccc3s2)c1` gave an inhibition of 1.5% (Trypanosoma cruzi; reporter translation, Renilla luciferase mRNA translation; cell-free extract; 40 µM; reference: DMSO).
For `CCc1nc(N)nc(N)c1-c1ccc(Cl)cc1`, inhibition read “inhibited” (Toxoplasma gondii; ex vivo bradyzoite plaques; ME49; 3 times EC90, continuous exposure).
`Oc1ccccc1-c1nnc(S)o1` gave an IC50 of greater than 125 µM (Histone acetyltransferase RTT109, with Vps75 (Saccharomyces cerevisiae, UniProt Q07794); enzyme activity, inhibitor, HTS, CPM-based, dose response).
`CCc1nc(N)nc(N)c1-c1ccc(Cl)cc1` gave a parasite survival of 55.3% (Toxoplasma gondii; [3H]uracil incorporation; human fibroblasts, RH wild type; 10 µM).
The mean lifespan of `Cc1ccc(NC(=O)N2Cc3[nH]cnc3C[C@H]2c2nc(-c3ccc4c(c3)OCO4)no2)cc1` is reported as 18.6 days (Caenorhabditis elegans; N2; 100 µM).
`CC[C@H]1CN2CCc3cc(OC)c(OC)cc3[C@@H]2C[C@@H]1C[C@H]1NCCc2cc(OC)c(OC)cc21` gave an EC50 of 0.575 µM (Toxoplasma gondii; parasite growth; HFF, bradyzoite, alkaline-induced).
For `C[C@@H](O)[C@H]1C(=O)N2C(C(=O)O)=C(SCCN=CN)C[C@H]12`, the bacterial load was 8.72 log CFU and 8.38 log CFU and 7.6 log CFU and 8.45 log CFU (Pseudomonas aeruginosa; BAA-2797, BALB/c mouse peritonitis, peritoneal fluid; dose not given).
For `COc1cc(C#C[C@@H](O)CC(C)C)ccc1O`, the biofilm formation was 69% (Pseudomonas aeruginosa; static biofilm; PA14; 10 µM, 24 h; reference: DMSO).
`Cc1cc(Nc2ccc(S(F)(F)(F)(F)F)cc2)n2nc(C(C)(F)F)nc2n1` — result for “parasite clearance lag phase”: no more than 40 h (Plasmodium vivax; microscopy; infected human patients; dose not given).
`OC[C@H]1O[C@@H](O[C@@H]2[C@@H](O)[C@H](O[C@@H]3[C@@H](O)[C@H](O[C@H]4[C@H](O)[C@@H](CO)OC(O)[C@@H]4O)O[C@H](CO)[C@H]3O)O[C@H](CO)[C@H]2O)[C@H](O)[C@@H](O)[C@@H]1O` (stereo partly drawn) gave a ΔH of -31.4 kcal/mol (Bacteroides uniformis; binding, ITC; pH 7.0, 25 °C, distal domain).
For `Cl.NCc1ccc(-c2nc(-c3ccc(OC(F)F)cc3)no2)cc1`, activity read “inactive” (Clostridioides difficile; spore germination; ATCC 43255; 45 µM).
For `CC#CC(=O)N(CCCOC)C(C)c1cccs1` (stereo not drawn), the labelling was 13.9% (UCHL1; covalent, intact protein LC-MS; 12.5 µM).
`CN[C@H](CC(C)C)C(=O)N[C@H]1C(=O)N[C@@H](CC(N)=O)C(=O)N[C@H]2C(=O)N[C@H]3C(=O)N[C@H](C(=O)N[C@H](C(=O)O)c4cc(O)cc(O)c4-c4cc3ccc4O)[C@H](O)c3ccc(c(Cl)c3)Oc3cc2cc(c3O[C@@H]2O[C@H](CO)[C@@H](O)[C@H](O)[C@H]2O[C@H]2C[C@](C)(N)[C@H](O)[C@H](C)O2)Oc2ccc(cc2Cl)[C@H]1O` gave an MIC50 of 1 µg/mL (≈ 0.69 µM) (Streptococcus pneumoniae; penicillin-resistant, 10 isolates; serum 75%).
For `Cc1ccccc1NC(=O)C(C#N)=Cc1cccnc1`, the labelling was 8.01% (UCHL1; covalent, intact protein LC-MS; 12.5 µM).
For `C(=N\Nc1ccccc1)/c1ccc(-c2ccc(/C=N/Nc3ccccc3)cc2)cc1`, the selectivity index was less than 0.6 (Nakaseomyces glabratus; ATCC 2001; reference: mammalian CC50 over MIC).
`OC[C@H]1O[C@@H](O[C@@H]2[C@@H](O)[C@H](O[C@@H]3[C@@H](O)[C@H](O[C@@H]4[C@@H](O)[C@H](O[C@H]5[C@H](O)[C@@H](CO)OC(O)[C@@H]5O)O[C@H](CO)[C@H]4O)O[C@H](CO)[C@H]3O)O[C@H](CO)[C@H]2O)[C@H](O)[C@@H](O)[C@@H]1O` (stereo partly drawn) gave a -TΔS of 16.3 kcal/mol (Bacteroides uniformis; binding, ITC; pH 7.0, 25 °C, middle domain).
For `CC(=O)[C@]1(O)Cc2c(O)c3c(c(O)c2[C@@H](O[C@H]2C[C@H](N)[C@H](O)[C@H](C)O2)C1)C(=O)c1ccccc1C3=O`, the EC90 was 0.839 µM (Toxoplasma gondii; parasite growth, luciferase reporter; HFF, tachyzoite; 72 h).
`CC(=O)NC[C@H]1CN(c2ccc(N3CCOCC3)c(F)c2)C(=O)O1` has an MIC50 of 4 µg/mL (≈ 11.9 µM) (Staphylococcus aureus; MRSA, 10 isolates; serum 75%).
`Clc1ccc(C(c2ccc(Cl)cc2)n2cc[n+](CC(OCc3ccc(Cl)cc3Cl)c3ccc(Cl)cc3Cl)c2)cc1` (stereo not drawn) gave an EC50 of 5.21 µM (Toxoplasma gondii; parasite growth; HFF, bradyzoite, alkaline-induced).
For `OC(Cn1cncn1)(Cn1cncn1)c1ccc(F)cc1F`, biofilm inhibition read “no effect” (Cryptococcus neoformans; concentration not given).
`CCN(CCO)CCCC(C)Nc1ccnc2cc(Cl)ccc12` (stereo not drawn) gave an inhibition of 9.13% (hepatitis E virus; viral replication, Renilla luciferase replicon; S10-3 replicon, genotype 1; 0.78 µM, 48 h).
The EC50 of `CCCC(=O)OCSc1ccccc1C(=O)NCCn1cc(C(=O)NCc2ncccc2C)c(=O)c2cc3c(cc21)OCO3` is reported as 0.51 ± 0.02 µM (HIV-1; virus-induced cytopathic effect, inhibitor, XTT; CEM-SS, RF; 6 days).
`Nc1nc(-c2ccccc2)nc2[nH]nc(Nc3ccc(C(F)(F)F)cc3)c12` gave a clinical score of 1.2 (coxsackievirus B3; 31-1-93, NMRI mice, CVB3 chronic myocarditis; oral, 100 mg/kg twice daily, day 12, dosed days 3 to 10, score scale 0 to 7; direction not given).
`CC(C)(C)c1ccc(S(=O)(=O)/C=C/C#N)cc1` has an EC90 of 11.4 µM (Toxoplasma gondii; parasite growth; HFF, bradyzoite, alkaline-induced).
`COc1cc(C#CC(O)c2ccccc2OC)ccc1O` (stereo not drawn) gave a biofilm formation of 61% (Pseudomonas aeruginosa; static biofilm; PA14; 10 µM, 24 h; reference: DMSO).
`[H]/N=C(/NCCCCC)N/N=C/c1c[nH]c2ccc(OC)cc12` gave an EC50 of 5.54 µM (Toxoplasma gondii; parasite growth, luciferase reporter; HFF, tachyzoite; 72 h).
`COc1cc(-c2[o+]c3cc(O)cc(O)c3cc2O[C@@H]2O[C@H](CO)[C@@H](O)[C@H](O)[C@H]2O)ccc1O` gave an IC50 of greater than 100 µM (HIV-1; viral infection; TZM-bl, NL4-3 (CXCR4-tropic); 48 h).
With `CCCC(=O)OCSc1ccccc1C(=O)NCCOc1ccnc2ccc(OC(F)(F)F)cc12` the EC50 was 2.32 ± 1.48 µM (HIV-1; virus-induced cytopathic effect, inhibitor, XTT; CEM-SS, RF; 6 days).
`COc1cc(C#CC(=O)CC(C)C)ccc1O` has a biofilm formation of 68% (Pseudomonas aeruginosa; static biofilm; PA14; 10 µM, 24 h; reference: DMSO).
With `CC(C)n1ncc2c(C(=O)NCC3(C)CNC3)cc(C3CC3)nc21` the cell protection was 1.13% and -0.282% (Enterovirus D68; cytopathic effect; RD, US/KY/14-18953; 5 nM).
Under “MIC of compound in combination”, `N=C(N)c1ccc(OCc2ccccc2COc2ccc(C(=N)N)cc2)cc1` is recorded as 25 µg/mL (Escherichia coli; checkerboard; mcr-3 polymyxin-resistant; concentration not given, added: rifampicin).
`Cc1cccc(CNC(=O)c2cn(CCNC(=O)c3ccccc3Sc3c([N+](=O)[O-])ncn3C)c3cc4c(cc3c2=O)OC(F)(F)O4)n1` gave an EC50 of 10 ± 1.81 µM (HIV-1; viral cytopathic effect, XTT; CEM-SS, RF; added: glutathione 1 mM).
With `COc1cc(C#CC(=O)c2ccccc2OC)ccc1O` the mRNA level was 47% (Pseudomonas aeruginosa; RT-qPCR, measured: rhlA; biofilm cells; 10 µM, 24 h; reference: untreated).
`CCNCc1nc2c(N)nc3ccccc3c2n1CC(C)(C)O` gave an EC90 of 30 µM (Toxoplasma gondii; parasite growth; HFF, bradyzoite, glutamine-induced).
`COc1cc(C#CC(=O)c2ccc(Cl)cc2)ccc1O` gave a biofilm formation of 65% (Pseudomonas aeruginosa; static biofilm; PA14; 10 µM, 24 h, static; reference: DMSO).
`CCCCc1ccc(CNc2nc(N(C)C)nc(N(C)C)c2/N=N/c2ccc(Cl)cc2)cc1` gave a control efficacy of 57% (Ostrinia furnacalis; corn seedlings; foliar spray, 50 mg/L, 7 days).
The biofilm formation of `O=C(C#Cc1ccc(F)c(F)c1)c1cccc(Cl)c1` is reported as 56% (Pseudomonas aeruginosa; static biofilm; PA14; 10 µM, 24 h; reference: DMSO).
`C=CC[C@@H]1c2ccc(OC)c(OC)c2CN2CCc3cc4c(cc3[C@H]12)OCO4`: “relative wound size” 0.25 and 0.34 and 0.52 and 0.46 and 1.03 and 0.3 (Staphylococcus aureus; P2rx7+/+ mice, skin wound infection; dose not given, day 5; reference: day 0).
